Measured values of several laboratories.
Each line is one published result; not all experiments were run side by side. Values joined by “and” are separate records of one study, mostly repeats; a detail may differ. ± gives the spread as reported.
CDK2: Cyclin-dependent kinase 2 (CDK2, Homo sapiens, UniProt P24941)

CSCCNc1nc(SCCC(F)(F)F)nc2c1ncn2[C@@H]1O[C@H](COP(=O)(O)OP(=O)(O)C(Cl)(Cl)P(=O)(O)O)[C@@H](O)[C@H]1O — result for “inhibition of platelet aggregation”: 34.1 ± 22.3% (light transmittance aggregometry; human patients, platelet-rich plasma; dose not given, 2 h, added: ADP 20 µM).
Under “pAKT change from baseline”, CO[C@H]1CC[C@H](N2C(=O)CNc3ncc(-c4ccc(C(C)(C)O)nc4)nc32)CC1 is recorded as -60.3% (flow cytometry; stimulated monocytes, human, blood; 45 mg single dose, 1.5 h, median; reference: baseline).
Nc1ncnc2[nH]c(S)nc12 gave an IC50 of 220 ± 90 µM (CoA-CPM signal reduction, CPM fluorescence thiol; cell-free biochemical; assay interference counter-screen, added: CoA replacing acetyl-CoA).
Under “mean arterial pressure change”, CC(CCc1ccc(O)cc1)NCCc1ccc(O)c(O)c1 (stereo not shown) is recorded as 0 ± 1.3 (anaesthetised instrumented rat; iv infusion, 1 µg/kg/min, 15 min, unit not given; reference: baseline).
[Cl-].[Cl-].[Ru+2].c1cnc2c(c1)ccc1cccnc12.c1cnc2c(c1)ccc1cccnc12.c1csc(-c2ccc(-c3ccc(-c4nc5c6cccnc6c6ncccc6c5[nH]4)s3)s2)c1 — result for “singlet oxygen quantum yield”: ~88% (air-saturated acetonitrile).
O=C(NNC1CC(=O)N(c2ccc(Br)cc2)C1=O)c1ccc(-n2cccc2)cc1 (stereo not shown) gave an IC50 of > 125 µM (CoA-CPM signal reduction, CPM fluorescence thiol; cell-free biochemical; assay interference counter-screen, added: CoA replacing acetyl-CoA).
COc1ccc(-c2cncc(N[C@@H](C)c3cccc(NC(=O)c4cncc(C)c4)c3)n2)cc1OC: “delta delta Ct” 0.81 (refers to: rno-miR-128-3p; rat SU5416/hypoxia model, lung; dose not given, unit not given; reference: SU5416/hypoxia vehicle).
CCOCc1nc2c(N)nc3ccccc3c2n1CC(C)(C)O — result for CD86 induction: “increased” (CD86 expression, flow cytometry; CD14+ myeloid cells in PBMC, human; 100 or 1000 nM).
For N=C(N)NCCC[C@H](NC(=O)[C@H](CCCNC(=N)N)NC(=O)[C@H](CCCCN)NC(=O)[C@H](CCC(N)=O)NC(=O)[C@H](CCCCN)NC(=O)[C@H](Cc1ccc(O)cc1)NC(=O)[C@@H](N)CCCCN)C(=O)N[C@@H](CO)C(=O)N[C@@H](Cc1ccc(O)cc1)C(=O)N[C@@H](CCCCN)C(=O)O, “median Schiff sensitivity score change” read -1 (air evaporative stimulus; dentin hypersensitivity patients; 10 µg/tooth single, day 22; reference: baseline, direction not given).
The maximum inhibition of Cc1noc(C)c1-c1cc(C(O)(c2ccccn2)c2ccccn2)c2nc(C3CC3)[nH]c2c1 is reported as 37% (refers to: CCR2 expression; human, peripheral blood; 6 mg, day 1, 1604 study, added: enzalutamide).
The Kd of COc1cc(OC)c(NC(=O)CSc2nnc(-c3ccncc3)n2-c2ccccc2)cc1Cl is reported as > 100 µM (CDK2; binding).
Under “NAFLD activity score”, Cc1cc(/C=C2\Oc3cc(OCC4CC4)ccc3C2=O)cc(C)c1OC(C)(C)C(=O)O is recorded as “decreased” (db/db mice on MCD diet; oral, 30 mg/kg daily, 45 days; reference: untreated model).
CCCCOc1nc(N)c2c(n1)N(Cc1cccc(CN3CCCC3)c1)CC(=O)N2: “TLR7 mRNA level” “increased” (qPCR; human, blood; dose not given, three dosing periods; reference: baseline).
FC(F)=Cc1cc(C(F)(F)F)cc(C(F)(F)F)c1: “pseudo-first-order rate constant” 0.7 h⁻¹ (HPLC-MS; pH 10.2, added: 50 mM N-α-acetyl-lysine).
CC(C)[C@H](NC(=O)[C@H](Cc1ccc(O)cc1)NC(=O)[C@H](Cc1ccc(O)cc1)NC(=O)[C@@H]1CCCN1C(=O)[C@H](CCC(=O)O)NC(=O)[C@H](CCC(=O)O)NC(=O)[C@H](Cc1c[nH]c2ccccc12)NC(=O)[C@@H]1CCCN1C(=O)[C@@H](NC(=O)[C@H](CCC(N)=O)NC(=O)c1ccc2c(c1)C(=O)OC21c2ccc(O)cc2Oc2cc(O)ccc21)C(C)C)C(=O)N[C@H](C(=O)N[C@@H](CCCCN)C(=O)N[C@@H](CCCCN)C(=O)N[C@@H](CO)C(=O)N[C@@H](CO)C(=O)NCC(=O)NCC(N)=O)C(C)C — result for “share of responses”: 50% (nerve trajectory; human head and neck surgery, nerves; 500 mg, not improved; reference: white light).
CCc1c(C)nc(-c2ccc(Cl)s2)nc1Nc1ccc(CC(=O)O)cc1 — result for “Sirius Red staining”: “decreased” (mice, chronic ethanol plus binge, liver; intraperitoneal, 0.3 mg/kg daily, ethanol diet 4 weeks, dosed last two; reference: vehicle).
OCC(O)CO: “hexose phosphate concentration” 0.572 mM and 0.633 mM and 0.614 mM and 0.372 mM and 0.656 mM (targeted LC-MS metabolomics; Mus musculus male Gpd2 knockout, liver; drinking water, 5% w/v, 2 days).
C[C@H]1C[C@H]2CSC(N)=N[C@@]2(c2nc(NC(=O)c3ccc(OC(F)F)cn3)cs2)CO1: “percent change from baseline” -59.3% (refers to: total Aβ; healthy adults, plasma; 400 mg single dose, 6 h post-dose; reference: placebo).
Under “change, Alpha EEG power, in O2-Pz”, OC(CCN1CCCCC1)(c1ccccc1)C1CC2C=CC1C2 (stereo not shown) is recorded as -14.7% (resting-state EEG; healthy elderly humans; oral, 2 mg, eyes closed, LS mean; reference: baseline).
CC(=O)Oc1cc2c(s1)CCN(C(C(=O)C1CC1)c1ccccc1F)C2 (stereo not shown): “patients with IPA above 80%” 0% (platelet aggregation, light transmission aggregometry; human patients, platelet-rich plasma; 2 h, added: TRAP 15 µM).
COc1cc(Nc2ncc3c(n2)-c2ccc(Cl)cc2C(c2c(F)cccc2OC)=NC3)ccc1C(=O)O: “median response score” 6 (mouse, NB-1643 neuroblastoma xenograft; 5.2 mg/kg; direction not given).
O=S1(=O)CC(Sc2ccccc2)c2ccccc21 (stereo not shown) gave an IC50 of > 125 µM (CoA-CPM signal reduction, CPM fluorescence thiol; cell-free biochemical; assay interference counter-screen, added: CoA replacing acetyl-CoA).
Under “log2 fold change”, N#Cc1ccn2c(-c3ccncc3)c(-c3ccc(F)cc3)nc2c1 is recorded as -0.459 (kinase binding, competitor, MIB/MS competition, refers to: IKS1; Candida albicans cell lysate; 100 nM; reference: DMSO).
For Cn1cc(-c2ccc(-c3cncc(Cl)c3N3CCC4(CCNC4=O)CC3)cc2)cn1, “fold change in expression” read 1.44 (COLO 205; microarray, refers to: c-Jun; concentration not given, 2 h; reference: untreated cells).
Under “maximum prothrombin time”, C[C@@H](NC(=O)N1C(=O)[C@H](Cc2ccnc(N)c2)[C@H]1C(=O)O)C1CCCCC1 is recorded as 13.4 s (human, plasma; continuous intravenous infusion, 1.0 mg/kg/h, days 1 to 6 of 5-day infusion, mean).
With C=CC(=O)N1CCC(c2ccc(C(N)=O)c(-c3ccc(Oc4ccccc4)cc3)n2)CC1 the PR was 54.7% (tumour response, Lugano classification; patients with relapsed/refractory MCL; independent review, 10.5 months follow-up).
For CN(C)C(=O)c1cc2cnc(Nc3ccc(N4CCNCC4)cn3)nc2n1C1CCCC1, the enrichment score was 0.381 (RNA-seq GSEA, refers to: HALLMARK_ESTROGEN_RESPONSE_LATE gene set; MB002 tumour; concentration not given; reference: vehicle, direction not given).
Cn1cc(Nc2nccc(-c3ccc4c(c3)CN(C3COC3)CC[C@H]4NC(=O)c3cn(C(C)(C)C)nn3)n2)cn1: “pathway activation z-score” 0.392 (refers to: Endocannabinoid Cancer Inhibition Pathway; splenic B cells, Mus musculus; 30 mg/kg, added: IgD activation; reference: vehicle, direction not given).
With O=C(O)CCC(=O)O.[2H]C([2H])([2H])Oc1cc(C)c2[nH]ccc2c1CN1CC[C@@H](C2CC2)C[C@H]1c1ccc(C(=O)O)cc1 the maximum inhibition was 53.4% (EIA, refers to: complement fragment Bb; human, plasma; 50 mg twice daily, multiple ascending dose).
For O=C(NC[C@H]1CN(c2ccc(N3CCOCC3=O)cc2)C(=O)O1)c1ccc(Cl)s1, “maximum prothrombin time prolongation” read 8.63 (human mild renal impairment, plasma; 10 mg, geometric mean, unit not given; reference: baseline).
For CCCSc1nsc(NC(=O)c2cnc3ccccc3n2)n1, the IC50 was > 125 µM (CoA-CPM signal reduction, CPM fluorescence thiol; cell-free biochemical; assay interference counter-screen, added: CoA replacing acetyl-CoA).
Under “tumour growth inhibition”, C=CCn1c(=O)c2cnc(Nc3ccc(N4CCN(C)CC4)cc3)nc2n1-c1ccc2c(n1)[C@@](O)(CC)CC2 is recorded as 92.2% (OVCAR-3 xenograft, NOD/SCID mice; oral, 80 mg/kg, day 32, once daily intermittent).
C[C@H](Oc1ccc(Br)cc1-c1ccon1)C(=O)O: “relative refractory period” -0.08 ms (muscle velocity recovery cycles; human, tibialis anterior muscle; 600 mg once daily, multiple doses, multiple ascending dose; reference: placebo).
CN[C@@H]1COc2c(S(=O)(=O)NC(=O)Nc3c4c(cc5c3CCC5)CCC4)cnn2C1 gave an inhibition of 99.6% (refers to: IL-1β; human participants, whole blood ex vivo; 900 mg single dose, 4 h, added: LPS/ATP; reference: baseline).
For NC1(C(=O)N[C@@H](CCO)c2ccc(Cl)cc2)CCN(c2nc[nH]c3nccc2-3)CC1, “PSA non-response rate” read 81.8% (human mCRPC patients; dose not given, added: enzalutamide).
For CC(C)n1c(C2CCNCC2)nc2c([N+](=O)[O-])c(Br)c(Br)cc21, “cycles to maximum reduction” read 3 cycles (patients with AML, bone marrow blasts; all dose levels, median and range).
NC(=O)c1ccc(NCCCN2CCOCC2)c([N+](=O)[O-])c1 gave a Kd of > 100 µM (CDK2; binding).
C[C@@H](O)CCOC(=O)C[C@@H](C)O has a metabolite level of -6.88 ± 0.46 µmol/L (refers to: C16:1-OH/C14:1-DC acylcarnitine; human, plasma; 60 min, log2-transformed values).
For NC(=O)c1cnc2[nH]ccc2c1N[C@@H]1[C@@H]2CC3C[C@H]1C[C@@](O)(C3)C2, “change from baseline” read -0.18% (flow cytometry, refers to: regulatory T cells; Japanese healthy subjects, peripheral blood; oral, 30 mg twice daily, day 7).
CC(C)(C)c1ccc(OC2=CS(=O)(=O)c3ccccc32)cc1 gave an IC50 of > 125 µM (CoA-CPM signal reduction, CPM fluorescence thiol; cell-free biochemical; assay interference counter-screen, added: CoA replacing acetyl-CoA).
